Assay results of several laboratories.
Each numbered part is a random draw from the data of one study; scales do not carry over between parts.

Sample 1
Target: RNA binding protein fox-1 homolog 2, RRM domain, GST-SBP tag (RBFOX2, Homo sapiens, UniProt O43251-10, residues 100-194)
Technique: RNA Bind-n-Seq
Molecule type: RNA
Matrix: in vitro
Concentration: 365 nM
Setting: natural RNA segment, single round, ends assumed
Reference: no-protein control
Direction: higher = stronger binding
Measurement: RBNS enrichment (R)
All sequences stand within: GGGAGUUCUACAGUCCGACGAUC … UGGAAUUCUCGGGUGCCAA
Target sequence (chain): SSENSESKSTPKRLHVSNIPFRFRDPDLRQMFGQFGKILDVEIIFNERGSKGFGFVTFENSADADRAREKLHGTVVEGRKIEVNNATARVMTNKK
Sequence = ACCGUCCUGGUUUAGUGGAUGGGGAGGAUGGGGUGACGGCUUACCAGCUGUAUUAUGUACUGUACUGUACUAGGAGUUCCCUAGUUUGCUAGGUGAGUUUCAUUCUGGAA; result = 0.303
Sequence = ACCCCUUUCAUGGAAACGGUGUCUGGGGCAGAUAAACAUUGGGUACCUUCACUGUUUUGAGGGGGGCUGAGACAAGACACCCCCGCUUCUAGGUAUCUUCUAGAGCAGUG; result = 0.339
Sequence = AUACUGUUACAUCCAGAACAUUUGUCAGGCUCUCUGUCAGCUUUCAUGUACAUAUGGUAUAGAAACCAUGGAGUUAGGCACUUCCUGGAUUUUUUUUUUAUGAGAAAAAU; result = 0.339
Sequence = CCCUCAGCAGCCGAUGCAGAGGAUGAAGAGGAUUAUGACUCCUAGCGCCCUGUGCCCCUGUACCCCAGCCAUGCUCUCUUCUAGUUAGUAUUAAUUGCUUUGGGGAGAGG; result = 0.249
Sequence = AAGCCCCUCGCUCUCCCCUCUCUGUUUUCCCAUUAAUCAAAGCCAUGUCUAGAAUGGGCCAGCCACCUUGCAGUAAAAUCAAUGAGUUCUGAAGCAACCUUCAAUUUUCA; result = 0.465
Sequence = UGAUGCCUUUGACAGUGAUGAAAACGAUUUCACCACAUCUGAAUCCAGAGAAACCGGCUUUUUUUCUUAUUGCGAGCAUGUUAAAACGUUGGGAACAUGUGGGGAAUUGU; result = 2.35
Sequence = AAUGAGCUCUUAGUGUUUUAUUUAUCUGAAAAAAUGUAAGUAAAAGCAGUGUUAGUGAGAGGUGCAAAGAAUUAUUCUAACAGACACCUGAAAGUAUCUGUAAGCAAUAC; result = 0.709
Sequence = UGGAUCUAUUUUAUGCAUGACCUUUUAACCUUUGACUUUGCUUAUUUCCCACUACGAAGGGGAAGGUAGAUUUUAUGAAUGAUUUUAAUAGCAAAUAUAUUUUAUAAAGU; result = 8.87

Sample 2
Target: Replicase polyprotein 1ab, main protease (rep, Severe acute respiratory syndrome coronavirus 2, UniProt P0DTD1)
Read-out: enzyme activity
Mode: inhibitor
Concentration: 20 µM
Setting: primary screen
Measurement: inhibition
SMILES = CS/C(N)=C(C#N)/C(C#N)=C(\N)SC; result = 53.3%
SMILES = C=Cc1c(C)c2cc3nc(c(CC(=O)[O-])c4[n-]c(cc5nc(cc1[n-]2)C(C)=C5CC)c(C)c4C(=O)[O-])C(CCC(=O)[O-])C3C.[Cu+2] (centres unmarked); result = 26.7%
SMILES = COC1=C2C[C@@H](C)C[C@H](OC)[C@H](O)[C@@H](C)/C=C(\C)[C@H](OC(N)=O)[C@@H](OC)/C=C/C=C(\C)C(=O)NC(=CC1=O)C2=O; result = 31.5%

Sample 3
Cell line: HEK-293T
Read-out: pseudovirus infection
Technique: FDA-approved drug library screen
Organism: VSV pseudotyped with SARS-CoV-2 spike
Concentration: 10 µM
Time: 16 h
Reference: vehicle-treated
Measurement: GFP-positive cells
SMILES = COCCc1ccc(OCC(O)CNC(C)C)cc1 (centres unmarked); result = 83.9%
SMILES = O=P(O)(O)C(O)(Cc1cccnc1)P(=O)(O)O; result = 106%
SMILES = CC(C)(C(=O)c1cccnc1)c1cccnc1; result = 97%
SMILES = CC(C)/N=c1\cc2n(-c3ccc(Cl)cc3)c3ccccc3nc-2cc1Nc1ccc(Cl)cc1; result = 80%

Mixed results
SMILES = Cc1c(-c2cnccn2)ssc1=S; target = Replicase polyprotein 1ab, nsp13 helicase (rep, Severe acute respiratory syndrome coronavirus 2, UniProt P0DTD1); IC50 = 3.33 µM
SMILES = O=C(Nc1cccnc1)N1CCC(Cc2cccc(Oc3ccc(C(F)(F)F)cn3)c2)CC1; target = Replicase polyprotein 1ab, polymerase (rep, Severe acute respiratory syndrome coronavirus 2, UniProt P0DTD1); read-out = enzyme activity; mode = inhibitor; IC50 = 10.2 µM
